# Measurements pooled from the literature.
# Each numbered part is a random draw from the data of one study; scales do not carry over between parts.

# Series 1 — method: RNA Bind-n-Seq; molecule type: RNA; matrix: in vitro; concentration: 200 nM; notes: whole 134-nt RNA, ends assumed; with: 150 mM KCl; reference: input library; direction: higher = stronger binding
# Target: Ras GTPase-activating protein-binding protein 1, full length (G3BP1, Homo sapiens, UniProt Q13283)
# Sequence of UniProt Q13283 (whole entry, looked up): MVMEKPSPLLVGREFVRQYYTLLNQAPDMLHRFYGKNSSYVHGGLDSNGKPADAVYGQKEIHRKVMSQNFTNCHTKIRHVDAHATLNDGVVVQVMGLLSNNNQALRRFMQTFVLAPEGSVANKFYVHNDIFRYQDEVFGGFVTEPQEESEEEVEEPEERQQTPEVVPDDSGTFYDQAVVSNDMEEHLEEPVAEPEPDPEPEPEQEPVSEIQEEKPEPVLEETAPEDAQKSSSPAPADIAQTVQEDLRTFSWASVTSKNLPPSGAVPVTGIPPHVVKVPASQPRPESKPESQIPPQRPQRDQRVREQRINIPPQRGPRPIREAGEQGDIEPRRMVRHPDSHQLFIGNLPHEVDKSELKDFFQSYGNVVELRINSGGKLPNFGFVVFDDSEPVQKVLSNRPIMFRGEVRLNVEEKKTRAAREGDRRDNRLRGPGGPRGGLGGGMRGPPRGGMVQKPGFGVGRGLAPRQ
# All sequences stand within: GGGAGUUCUACAGUCCGACGAUC … UGGAAUUCUCGGGUGUCAAGG
Sequence,log2 enrichment
CACAGACAACACGCACCCACACAGACAGAGAGGGAAGGGGUUGGGAUGGGGACAGGGUGCACAGCAGGGCGGGGUAGGACCCCAGCCCCU,1.97
UGGCCCUGGUGGCAUGCGGGGAGGAAGAGGUGGCCUCAUGGAUCGUGGUGGCCCCGGUGGAAUGUUCAGAGGUGGCCGUGGUGGAGACAG,0.158
CCUGUGCUACACAUCGUAUGUACCGAAUCGGGGCCCCCCCGGCCCCCCCGGCCCCCCCGGAAAGUAUUAUGUUACGCCGUUCGGAUCUGC,0.131
CAAGUCCUGUGCUACACAUCGUAUGUACCGAAUCGGAAAGGAAAGGGGAAAGGGGAAAGUAUUAUGUUACGCCGUUCGGAUCUGCACUUC,-0.349
AAGUCCUGUGCUACACAUCGUAUGUACCGAAUCGGUUUGGUUUUUGGAAAAAAAGGAAAGUAUUAUGUUACGCCGUUCGGAUCUGCACUU,-1.19
UGUGCUACACAUCGUAUGUACCGAAUCGGGUUUUUUUGGGGUUUUUUUGGGUUUUUUUGGGGAAAGUAUUAUGUUACGCCGUUCGGAUCU,-0.805
GUGCUACACAUCGUAUGUACCGAAUCGGGGCCCCCCCGGGGCCCCCCCGGGGCCCCCCCGGGGAAAGUAUUAUGUUACGCCGUUCGGAUC,-1.87
CUCAAGUCCUGUGCUACACAUCGUAUGUACCGAAUCGGAGGAAAAAAAGGUGGAAAGUAUUAUGUUACGCCGUUCGGAUCUGCACUUCCA,-0.388
CCUGUGCUACACAUCGUAUGUACCGAAUCGGGGCCCCCGGGGCCCCCGGGGCCCCCGGGGAAAGUAUUAUGUUACGCCGUUCGGAUCUGC,0.081
UAACUUUAGAGGAGGAUCUGAUGGAUAUGGCAGUGGACGUGGAUAUGGGGAUGGCUAUAAUGGGUAUGGAGGAGGACCUGGAGGUGGCAA,0.512
UCAAGUCCUGUGCUACACAUCGUAUGUACCGAAUCGGGGUUGGGGUUGGGGUUGGAAAGUAUUAUGUUACGCCGUUCGGAUCUGCACUUC,0.215
UUGGGUUCAAUAUACGGAGAGUGCCCUGUGCCAAAGCCACGAGUUGAUCGUCCAAGAAAAGUUCCUGUGAUACAAGAGGAGAGGGCAAUG,-1.28
ACCAUGCAGGUGGGCAUCUUUGGGAAGGGGGGCAAGGGGGGGAUAGGGAGGGGGGUAACACUUUGGGAACAGGUGGUCCCAGGUCGUUUC,1.16
CAAGUCCUGUGCUACACAUCGUAUGUACCGAAUCGGGGCCCGGGCCCGGGCCCGGAAAGUAUUAUGUUACGCCGUUCGGAUCUGCACUUC,-0.158

# Series 2 — method: protein binding microarray; molecule type: double-stranded DNA, one strand shown; matrix: in vitro; concentration: not given; reference: not given; direction: higher = stronger binding
# Target: Histone acetyltransferase KAT6A, winged helix 1, GST fusion (KAT6A, Homo sapiens, UniProt Q92794, residues 1-85)
# Notes: 8-mer, flanks averaged, mean of 2 arrays, mostly near background
# Residues (chain): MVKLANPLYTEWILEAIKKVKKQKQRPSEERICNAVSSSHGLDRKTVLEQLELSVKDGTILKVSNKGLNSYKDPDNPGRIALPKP
Sequence,E-score
ATACGAGC,-0.163
GTAAAGAA,-0.113
GATTAATA,-0.0317
GCGTCTAA,0.124
CTAAACCA,-0.0527
AAGACCCT,-0.203
TACTGGAA,-0.17
TCACACAA,-0.231
ATTGGTGC,0.0408
ACCATCTC,-0.17
ACCAGACG,-0.134
CAGGTCCG,0.0878
CCAATTCA,-0.205
TGCCTACA,-0.0928
GCGCACCC,0.382
GGGTGGTA,-0.0553
CACCTGGA,-0.348
CCCTATCC,-0.115
TGTATACA,-0.169
CGCATACG,0.319
CTTAACAA,0.0025
CGCAGCCG,0.309
ATTAACTA,-0.126
CTCAAAGA,-0.137
AGCAATGC,-0.207

# Series 3 — method: competition protein-binding microarray; molecule type: double-stranded DNA, one strand shown; matrix: in vitro; concentration: 2 µM; with: Pho4 competitor, 0.05 µM; direction: higher = stronger binding; all sequences stand within: … GTCTTGATTCGCTTGACGCTGCTG
# Target: Centromere-binding protein 1, full length, His-tagged (CBF1, Saccharomyces cerevisiae, UniProt P17106, residues 1-351)
# Sequence of UniProt P17106 (whole entry, looked up): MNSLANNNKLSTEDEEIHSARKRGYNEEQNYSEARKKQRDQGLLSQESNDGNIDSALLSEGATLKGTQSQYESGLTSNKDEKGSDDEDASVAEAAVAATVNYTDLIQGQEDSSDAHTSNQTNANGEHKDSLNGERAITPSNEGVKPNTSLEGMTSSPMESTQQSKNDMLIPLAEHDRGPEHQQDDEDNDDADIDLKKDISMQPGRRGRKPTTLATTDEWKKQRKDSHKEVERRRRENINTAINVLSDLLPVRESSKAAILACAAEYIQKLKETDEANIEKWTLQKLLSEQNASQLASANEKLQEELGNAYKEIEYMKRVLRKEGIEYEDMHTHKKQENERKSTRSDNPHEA
# Notes: whole 60-bp probe, lowest competitor level
Sequence,fluorescence intensity [a.u.]
AGTACTGTAGGCTTGCACACTTTGTTCGCACTCTTA,66
TGCGCAACAACTTGGTGTGTGGGTGTATGTCTAGAA,59.7
CTTCTGTAAATTTGGGCCGTGGGTGGACGCGCCCCG,92.9
CTTCTGTAAATTTGGCACGTGTTTTGACGCGCCCCG,1860
CGGGGTTAAGTTTGGCTCGTGGGTGGCTTGCAGCAG,80.9
TTACATCATTGGCAACACATGCCTGGATCGCTTTAG,89.1
ATGATGGGAAACCATCACGTACGGTTTGGGAAAGGC,79.1
TGCTATTGATATTACGACATGTGTGCTTCTCATGAT,158
GAAAAAAAATTCTTACGCGTGAACCAAAACAAAAAT,121
CATTCGAGTCTATTGTGCGTGTTGGCTTAGATTCTT,66.9
CGTCCTAGCGATTGACTAGTGGGTGCCATGAGGAAG,59.6
CTTTCCCGATCTTGATGCGTGGGTGTAGCACATTTG,73.3
TGGCGCCGCCGCCACCACGCGGCAGCTCTGATTGGA,49.1
CTGTTTACCAATACTCACGTGGCCGCTCTTCTTTAG,1460
AAAATTTGGCAACCTAAAGGAGATTTTGGACGAGTT,68.3
GACATCTTCAGTACCCATGTGTAATTTGGCGAATTT,108
AACCAGTTGTTAAATCATGTGGTTATGGTCTTGTCG,399
TATTTTTCTGACGGCCACGTGAGATTCCTGGTTCGA,898
ACAAATATCGCGAACCGCGTGAAGTGGCTTAGTTTT,59.7
GGATTATTGATAGCCAACGTGCTTTGTTGGAAGACG,136
CGCGCTTGTTATACCCACGTTATTATTTGCCCCCAA,125

# Series 4 — method: RNA Bind-n-Seq; molecule type: RNA; matrix: in vitro; concentration: 365 nM; reference: no-protein control; direction: higher = stronger binding
# Target: RNA binding protein fox-1 homolog 2, RRM domain, GST-SBP tag (RBFOX2, Homo sapiens, UniProt O43251-10, residues 100-194)
# Notes: natural RNA segment, single round, ends assumed
# All sequences stand within: GGGAGUUCUACAGUCCGACGAUC … UGGAAUUCUCGGGUGCCAA
# Residues (chain): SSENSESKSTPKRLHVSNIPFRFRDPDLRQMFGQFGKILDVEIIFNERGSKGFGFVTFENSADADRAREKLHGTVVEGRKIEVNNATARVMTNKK
Sequence,RBNS enrichment (R)
AUAUUGAGUCUAGGCUCCAAUUACUCUCUAUCCUGUCUUUAGAGAGCUGUGAUUGAGUGUGCUAUUAUUUGGAAGGAGAAAAUGUAAAUUGAGAUAGCUGUAGUGUUUAU,1.2
GGACCCAGAUGAUGGCUUCUCAGGGCAAGUCAUAAGUUAUCAGGUCCACUUGUCUGGAAGAAUAACAAGAAAGCUGCUGCUUUCGAGAUCACCCGCCAGAGGCGGGGCAC,0.29
UCCAAAGACCCCACCCCUCUGCUGGUCCUGCCAACGUGUUGGUGCUAUAAGCUGCUUCAGAUAUAAAAUUGGUUUAUCUAUAAUGUUUGUUCAUUUAAUAGCUUCUAAAA,0.536
GCCUUUUUAUUUAUAUGUACUGUUUUAUCUGGCCCCAGGUAGAAACUUUUAUCUAUUCUGAGAAAACAAGCAAGUUCUGAGAGCCAGGGUUUUCCUACGUAGGAUGAAAA,1.43
AAAGUAGGUCCUUAUUUACAAGGCUGCGUUAAAGUUGUACUAGGCAAACACACUGAUGUAGGAAGCACGAGGAAAGGAAGACGUUUUGAUAUAGUGUUACUGUGAGCCUG,2.42
ACUCAUUCCUCCAAGCCCUUGCGCUCCCGUUUCUCUCUCUCUCCGUCCACGUUCCAGCCGAGUCACUGCCUGACCGGCUCCAUGGCAGCUCCCCAUCUUCCCUAGAGGCU,0.869
UUAGGUUUUUGUUGUGUUUUUGGUUAUGCUGUCCCCCUUCUCCUUGGGGAGAUAUUUGGGAGCAAACUUAUUUAGAUUUAGAGUAAACUUUUCAUUAUAGAGCAAGUAAA,1.03
GGGGAGCGGUGGCACUCGUGGGAGGGAGAGGACCCCCGCCCACAUCCUCCUUCCCCAGGACCUGAGCUCCCAGCAUCUGCAGACGACCCCCGCAGCCUUUCCCUCGGACC,0.849
UUUAUGUAAGCAUGAAACACAGGCAGUAUGAGAGAAAGCAAGGCCCGUCAUGCUGUCCGUACACUACGUAUGCUGUAGAGCCAUUUUGUAUGUUGUGUAAAACAAAAAGC,23.3
UUUAAGACUCUUAAACUCAAAACUCUGCACAAAGAUUUCAGUUUCAAAUGUGUAUUAUACAUGGGUAGAAAAGUGUUUGCACAGGCAACUUUUGGAAGUGUUUAAGAAUC,2.35
AAAACUCUAUUUCUGUUCAUAUUAAUUCACUUGCCAGACUCCAAUUCUGAAAGUUGUCUAGUUCUUCCUUCAUCACACGUGCUUCUCAUCGAAACCCUGGUUUCAGGAUG,0.208
CUACUCUACAGUGACUACCUGUGGGCCAGGCCAUCUAAACUGAGAGGGGGAAAGAUUCUACUUCAAAUCUUUAACAACAAGAGUGAUUCUGUUCAGCUGGGGUAGAGUGA,0.532

# Some of these lines once more (series 2):
Sequence,E-score
GCGTCTAA,0.124
CCAATTCA,-0.205
ATTGGTGC,0.0408
ATTAACTA,-0.126
TCACACAA,-0.231
